Measured values collected from several papers.
A part holds a random share of what one study measured. Values joined by “and” are separate records of one study, mostly repeats; a detail may differ.
Chain of UniProt P32298 (whole entry, looked up): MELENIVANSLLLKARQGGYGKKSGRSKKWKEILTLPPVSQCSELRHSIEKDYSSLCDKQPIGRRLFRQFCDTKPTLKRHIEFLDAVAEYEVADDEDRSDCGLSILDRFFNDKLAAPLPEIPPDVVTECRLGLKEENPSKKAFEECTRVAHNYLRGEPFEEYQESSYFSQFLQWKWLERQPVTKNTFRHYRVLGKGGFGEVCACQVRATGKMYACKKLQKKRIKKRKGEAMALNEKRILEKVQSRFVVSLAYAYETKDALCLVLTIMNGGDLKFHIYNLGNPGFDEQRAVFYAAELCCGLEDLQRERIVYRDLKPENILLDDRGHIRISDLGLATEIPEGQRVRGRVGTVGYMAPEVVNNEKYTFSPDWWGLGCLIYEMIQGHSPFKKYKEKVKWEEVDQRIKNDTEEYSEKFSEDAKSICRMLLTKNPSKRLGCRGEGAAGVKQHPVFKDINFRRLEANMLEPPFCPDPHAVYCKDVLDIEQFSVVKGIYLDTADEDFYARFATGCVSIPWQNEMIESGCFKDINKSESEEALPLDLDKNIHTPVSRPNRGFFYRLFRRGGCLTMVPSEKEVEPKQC
Chain of UniProt Q9NRM7 (whole entry, looked up): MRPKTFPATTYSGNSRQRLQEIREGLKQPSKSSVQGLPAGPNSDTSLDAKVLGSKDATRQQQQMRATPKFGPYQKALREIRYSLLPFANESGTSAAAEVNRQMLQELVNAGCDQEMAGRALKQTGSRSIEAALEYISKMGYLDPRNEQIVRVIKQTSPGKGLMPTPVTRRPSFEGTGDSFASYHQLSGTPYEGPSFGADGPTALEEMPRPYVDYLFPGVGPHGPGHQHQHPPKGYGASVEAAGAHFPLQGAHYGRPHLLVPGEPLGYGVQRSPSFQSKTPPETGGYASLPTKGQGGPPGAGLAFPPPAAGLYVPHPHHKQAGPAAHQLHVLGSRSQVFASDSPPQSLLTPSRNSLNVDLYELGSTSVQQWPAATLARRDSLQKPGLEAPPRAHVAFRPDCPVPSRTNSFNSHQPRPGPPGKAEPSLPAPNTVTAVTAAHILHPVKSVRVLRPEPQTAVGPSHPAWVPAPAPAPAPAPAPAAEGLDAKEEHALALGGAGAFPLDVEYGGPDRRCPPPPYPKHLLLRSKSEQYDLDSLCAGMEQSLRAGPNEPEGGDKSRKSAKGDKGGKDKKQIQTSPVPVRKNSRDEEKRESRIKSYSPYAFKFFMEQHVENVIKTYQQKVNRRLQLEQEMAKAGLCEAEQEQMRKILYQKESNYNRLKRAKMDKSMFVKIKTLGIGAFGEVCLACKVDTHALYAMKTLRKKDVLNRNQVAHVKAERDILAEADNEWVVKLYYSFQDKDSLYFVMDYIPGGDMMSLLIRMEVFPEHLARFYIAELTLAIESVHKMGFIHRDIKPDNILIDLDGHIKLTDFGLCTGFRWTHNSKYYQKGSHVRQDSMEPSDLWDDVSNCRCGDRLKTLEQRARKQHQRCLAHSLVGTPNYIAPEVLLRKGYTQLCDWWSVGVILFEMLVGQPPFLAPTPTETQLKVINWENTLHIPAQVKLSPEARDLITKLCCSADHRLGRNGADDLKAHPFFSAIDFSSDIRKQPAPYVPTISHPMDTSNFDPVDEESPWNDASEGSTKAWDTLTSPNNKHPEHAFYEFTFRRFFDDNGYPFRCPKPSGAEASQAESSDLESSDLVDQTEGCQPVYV
Chain of UniProt Q13237 (whole entry, looked up): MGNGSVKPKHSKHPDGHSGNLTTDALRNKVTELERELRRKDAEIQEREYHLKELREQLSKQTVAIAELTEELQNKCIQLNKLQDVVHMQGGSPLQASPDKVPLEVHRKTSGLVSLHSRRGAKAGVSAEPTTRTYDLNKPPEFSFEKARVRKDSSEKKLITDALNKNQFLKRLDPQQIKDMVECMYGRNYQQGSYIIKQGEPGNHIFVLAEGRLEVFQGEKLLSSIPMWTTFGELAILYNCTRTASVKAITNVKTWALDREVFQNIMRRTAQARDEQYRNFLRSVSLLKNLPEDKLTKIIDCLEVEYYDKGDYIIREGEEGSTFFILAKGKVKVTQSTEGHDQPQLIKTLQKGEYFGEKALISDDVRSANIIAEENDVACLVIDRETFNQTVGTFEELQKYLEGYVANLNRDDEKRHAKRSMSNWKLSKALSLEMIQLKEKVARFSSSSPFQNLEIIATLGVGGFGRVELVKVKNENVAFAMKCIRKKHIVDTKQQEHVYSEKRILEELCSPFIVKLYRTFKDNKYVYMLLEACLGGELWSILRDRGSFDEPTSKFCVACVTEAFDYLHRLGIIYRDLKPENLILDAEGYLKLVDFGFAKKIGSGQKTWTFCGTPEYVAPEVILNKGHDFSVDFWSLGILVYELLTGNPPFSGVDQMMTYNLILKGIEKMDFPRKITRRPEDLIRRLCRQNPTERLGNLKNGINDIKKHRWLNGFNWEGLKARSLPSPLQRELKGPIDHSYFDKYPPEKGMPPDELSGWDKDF
Chain of UniProt Q8NE63 (whole entry, looked up): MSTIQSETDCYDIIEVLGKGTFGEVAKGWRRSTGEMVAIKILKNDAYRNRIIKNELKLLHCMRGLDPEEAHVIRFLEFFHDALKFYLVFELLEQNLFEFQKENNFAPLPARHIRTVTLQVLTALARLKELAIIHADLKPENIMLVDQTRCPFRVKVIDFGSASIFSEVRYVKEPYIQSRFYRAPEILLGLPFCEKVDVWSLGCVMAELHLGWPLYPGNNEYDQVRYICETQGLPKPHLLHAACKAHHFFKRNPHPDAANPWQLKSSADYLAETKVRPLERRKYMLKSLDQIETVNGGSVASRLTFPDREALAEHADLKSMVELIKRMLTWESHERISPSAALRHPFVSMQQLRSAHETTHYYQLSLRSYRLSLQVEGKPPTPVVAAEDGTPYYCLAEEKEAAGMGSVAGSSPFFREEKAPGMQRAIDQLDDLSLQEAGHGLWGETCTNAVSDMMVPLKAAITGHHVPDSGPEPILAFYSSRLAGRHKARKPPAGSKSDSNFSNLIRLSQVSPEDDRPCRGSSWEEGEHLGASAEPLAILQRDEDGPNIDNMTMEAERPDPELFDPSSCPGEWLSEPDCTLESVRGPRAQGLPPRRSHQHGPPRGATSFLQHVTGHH
Chain of UniProt Q12866 (whole entry, looked up): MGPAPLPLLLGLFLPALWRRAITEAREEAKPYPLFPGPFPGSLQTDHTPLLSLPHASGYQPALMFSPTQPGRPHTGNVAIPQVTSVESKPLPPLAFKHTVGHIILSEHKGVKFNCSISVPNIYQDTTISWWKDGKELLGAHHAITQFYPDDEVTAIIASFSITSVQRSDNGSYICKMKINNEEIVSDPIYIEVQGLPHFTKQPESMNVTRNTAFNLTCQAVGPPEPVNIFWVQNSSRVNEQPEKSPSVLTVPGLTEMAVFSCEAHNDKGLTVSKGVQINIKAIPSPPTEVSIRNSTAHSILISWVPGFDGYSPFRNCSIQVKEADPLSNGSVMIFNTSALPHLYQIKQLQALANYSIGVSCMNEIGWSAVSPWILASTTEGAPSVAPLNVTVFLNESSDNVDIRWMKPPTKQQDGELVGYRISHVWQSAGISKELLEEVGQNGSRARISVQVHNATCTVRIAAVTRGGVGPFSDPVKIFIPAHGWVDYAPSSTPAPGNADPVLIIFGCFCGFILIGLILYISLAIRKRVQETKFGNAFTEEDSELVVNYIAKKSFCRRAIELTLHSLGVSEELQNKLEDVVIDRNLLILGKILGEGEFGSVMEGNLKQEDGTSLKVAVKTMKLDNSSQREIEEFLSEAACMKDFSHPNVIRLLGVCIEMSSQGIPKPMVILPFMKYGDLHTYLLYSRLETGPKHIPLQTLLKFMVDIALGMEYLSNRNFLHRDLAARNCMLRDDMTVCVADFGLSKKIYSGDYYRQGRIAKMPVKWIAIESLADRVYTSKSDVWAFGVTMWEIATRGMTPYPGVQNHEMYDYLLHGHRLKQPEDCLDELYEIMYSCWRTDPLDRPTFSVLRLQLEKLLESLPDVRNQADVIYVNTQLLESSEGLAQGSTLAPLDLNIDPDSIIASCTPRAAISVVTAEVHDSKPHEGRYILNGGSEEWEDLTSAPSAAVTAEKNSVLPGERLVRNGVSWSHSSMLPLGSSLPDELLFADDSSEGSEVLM
Chain of UniProt P49336 (whole entry, looked up): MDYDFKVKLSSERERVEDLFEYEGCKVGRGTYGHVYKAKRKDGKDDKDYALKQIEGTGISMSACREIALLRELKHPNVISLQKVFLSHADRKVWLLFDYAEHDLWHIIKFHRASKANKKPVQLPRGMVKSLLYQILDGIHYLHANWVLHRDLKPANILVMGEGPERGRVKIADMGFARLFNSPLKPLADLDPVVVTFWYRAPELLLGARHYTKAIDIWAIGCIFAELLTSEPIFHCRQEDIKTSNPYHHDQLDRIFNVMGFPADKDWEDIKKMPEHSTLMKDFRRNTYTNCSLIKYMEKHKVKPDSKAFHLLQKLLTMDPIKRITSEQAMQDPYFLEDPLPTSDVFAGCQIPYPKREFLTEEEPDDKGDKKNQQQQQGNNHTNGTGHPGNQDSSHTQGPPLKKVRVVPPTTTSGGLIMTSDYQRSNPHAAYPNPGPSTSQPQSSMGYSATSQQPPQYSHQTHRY

Sample 1
Structure (SMILES): O=C(NCc1ncc(C(F)(F)F)cc1Cl)c1ccc2c(c1)C1(CCS(=O)(=O)CC1)[C@@H](C1CC1)N2S(=O)(=O)c1ccc(F)cc1
Observed: cell-free assay
Technique: competition with immobilised ligand
Concentration: 1 µM
| target | remaining binding [%] |
| --- | --- |
| Mitogen-activated protein kinase kinase kinase 12 (MAP3K12, Homo sapiens, UniProt Q12852) | 87 |
| G protein-coupled receptor kinase 4 (GRK4, Homo sapiens, UniProt P32298) | 100 |
| Mitogen-activated protein kinase kinase kinase 15 (MAP3K15, Homo sapiens, UniProt Q6ZN16) | 78 |
| cGMP-dependent protein kinase 2 (PRKG2, Homo sapiens, UniProt Q13237) | 89 |
| Homeodomain-interacting protein kinase 4 (HIPK4, Homo sapiens, UniProt Q8NE63) | 97 |
| ALK tyrosine kinase receptor (ALK, Homo sapiens, UniProt Q9UM73, L1196M) | 87 |
| Serine/threonine-protein kinase LATS2 (LATS2, Homo sapiens, UniProt Q9NRM7) | 99 |
| Cyclin-dependent kinase 8 (CDK8, Homo sapiens, UniProt P49336) | 63 |
| Mitogen-activated protein kinase kinase kinase kinase 1 (MAP4K1, Homo sapiens, UniProt Q92918) | 89 |
| Non-receptor tyrosine-protein kinase TYK2, JH2 (TYK2, Homo sapiens, UniProt P29597) | 73 |
| Tyrosine-protein kinase Mer (MERTK, Homo sapiens, UniProt Q12866) | 100 |
| Mitogen-activated protein kinase kinase kinase 19 (MAP3K19, Homo sapiens, UniProt Q56UN5) | 69 |
| Tyrosine-protein kinase JAK3, JH1 (JAK3, Homo sapiens, UniProt P52333) | 93 |

Sample 2
SMILES: CC(C)C[C@@H]1NC(=O)[C@@H](N(C)C(=O)[C@H](CC2CCC2)NC(=O)[C@@H]2C[C@@H](F)CN2C(=O)C2(C(F)(F)F)CC(F)(F)C2)CCCCNC(=O)C2(CC2)NC(=O)[C@H](Cc2cc(Cl)ccc2Cl)N(C)C1=O
Technique: PI flow cytometry
Time: 24 h
| cell line | concentration | S phase cells |
| --- | --- | --- |
| HCC4006 | 2000 nM | 31.7% and 30.1% and 21.7% |
| A549 | 200 nM | 24.6% and 23.1% and 15.6% |
| NCI-H1299 | 2000 nM | 20.4% and 17.6% and 18.3% |
| NCI-H82 | 2000 nM | 42.6% and 41.8% and 34.1% |

Sample 3
Host: mouse
Medium: microsomes or S9
Concentration: 2 µM
Time: 0.5 h
| SMILES | remaining compound [%] |
| --- | --- |
| Cc1c(C(=O)O)nnn1-c1cccc2cnccc12 | > 100 |
| CCOc1ccc(-c2c(C)n[nH]c2NC(=O)c2cc(OC)cc(OC)c2)cc1OCC | 0.309 |
| Cc1c(NC(=O)c2ccc(Cl)cc2)c(=O)n(-c2ccccc2)n1C | 84.7 |
| Cc1ccccc1-c1nc2ccccc2cc1Cn1nc(NCCCO)c2c(N)ncnc21 | 3.36 |
| O=c1[nH]c(N2CCCCC2)nc2ncc3c(c12)-c1ccccc1C3 | 1.62 |

Sample 4
SMILES: CO[C@@H]1[C@@H](OC(N)=O)[C@@H](O)[C@H](Oc2ccc3c(O)c(NC(=O)c4ccc(O)c(CC=C(C)C)c4)c(=O)oc3c2C)OC1(C)C
Technique: CellTiter-Glo
| cell line | concentration | time | relative to | viability |
| --- | --- | --- | --- | --- |
| MDA-MB-436 (BRCA1-mutant) | 6.3 µM | 6 days | untreated | 104% and 85.9% and 110% and 103% and 80% |
| RPE-1 BRCA1-/- PARPi-resistant R3 | 150 µM | 6 d | – | 62.7% |
| MDA-MB-436 PARPi-resistant | 25 µM | 6 days | untreated | 100% and 93.5% and 94.2% and 96.2% and 67.9% and 77% |
| RPE-1 BRCA1-/- PARPi-resistant R4 | 100 µM | 6 d | – | 66.3% and 57.7% |
| RPE-1 wild type | 200 µM | 6 days | untreated | 91.5% and 98.2% |
| MDA-MB-436 (BRCA1-mutant) | 200 µM | 6 days | untreated | 2.3% |

For quick reference, copied from above (sample 4):
| cell line | concentration | time | relative to | viability |
| --- | --- | --- | --- | --- |
| RPE-1 BRCA1-/- PARPi-resistant R3 | 150 µM | 6 d | – | 62.7% |
| MDA-MB-436 PARPi-resistant | 25 µM | 6 days | untreated | 100% and 93.5% and 94.2% and 96.2% and 67.9% and 77% |
| RPE-1 BRCA1-/- PARPi-resistant R4 | 100 µM | 6 d | – | 66.3% and 57.7% |
| RPE-1 wild type | 200 µM | 6 days | untreated | 91.5% and 98.2% |
| MDA-MB-436 (BRCA1-mutant) | 200 µM | 6 days | untreated | 2.3% |
